Results pooled from the literature.
Lines come from different studies, so protocols differ. Numbers after ± are the reported error.

The AUC(0-tau) of `O=c1[nH]c(=O)c(Cc2cccc(C(F)(F)F)c2)c([C@H]2CC[C@H](c3ccccc3)CC2)[nH]1` is reported as 1730 ng·h/mL (human, plasma; oral, 150 mg once daily, day 7, geometric mean).
For `CCOc1cc([C@@H](CS(C)(=O)=O)N2C(=O)c3cccc(NC(C)=O)c3C2=O)ccc1OC`, the AUC(0-tau) was 4120 ng·h/mL (human, plasma; oral, 30 mg twice daily, steady state, mean, with: methotrexate).
For `C=C(C)[C@@H]1CC[C@]2(NCCN3CCS(=O)(=O)CC3)CC[C@]3(C)[C@H](CC[C@@H]4[C@@]5(C)CC=C(C6=CC[C@@](CF)(C(=O)O)CC6)C(C)(C)[C@@H]5CC[C@]43C)[C@@H]12`, the AUC(0-tau) was 910 ng·h/mL (human, HIV-1 treatment-naive, plasma; oral, 10 mg once daily, day 8).
With `Cn1cc(-c2cn3nccc3c(-c3cnn([C@]4(CC#N)C[C@@H](C#N)C4)c3)n2)cn1` the AUC(0-tau) was 15.1 ng·h/mL/mg (healthy Japanese human, fed; oral, 400 mg once daily, day 1, multiple ascending dose, dose-normalised, geometric mean).
The AUC(0-tau) of `Nc1ccn([C@@H]2O[C@H](CO)[C@@H](O)C2(F)F)c(=O)n1` is reported as 5080 ng·h/mL (human, plasma; intravenous, 1000 mg/m2, cycle 1 day 1, with: lonafarnib 100 mg twice daily).
With `COCCCCn1c(C(=O)N(CC(C)C)[C@@H]2CNC[C@H](C(=O)N3CCOCC3)C2)nc2ccccc21` the AUC(0-tau) was 8010 ng·h/mL (non-elderly human, plasma; oral, 160 mg once daily, day 1).
`C=C(C)[C@@H]1CC[C@]2(NCCN3CCS(=O)(=O)CC3)CC[C@]3(C)[C@H](CC[C@@H]4[C@@]5(C)CC=C(C6=CC[C@@](CF)(C(=O)O)CC6)C(C)(C)[C@@H]5CC[C@]43C)[C@@H]12` gave an AUC(0-tau) of 21500 ng·h/mL (human, plasma; oral, 200 mg once daily, day 14).
`CC(C)(C)OC[C@@H]1C(=O)NCCN1C(=O)C[C@H](N)Cc1cc(F)c(F)cc1F` has an AUC(0-tau) of 162 ± 31.8 ng·h/mL (human; 10 mg once daily, steady state, day 10).
For `CCCCCCCC(=O)N[C@H](CN1CCCC1)[C@H](O)c1ccc2c(c1)OCCO2`, the AUC(0-tau) was 848 ng·h/mL (human healthy adults, plasma; oral, 84 mg twice daily, mean, with: paroxetine 30 mg daily).
With `CC(C)(Sc1ccncc1-c1ccc(C#N)c2ccccc12)C(=O)O` the AUC(0-tau) was 141 ng·h/mL (human, plasma; oral, dose not given, day 7, geometric mean, with: febuxostat).

A few entries again:
The AUC(0-tau) of `Nc1ccn([C@@H]2O[C@H](CO)[C@@H](O)C2(F)F)c(=O)n1` is reported as 5080 ng·h/mL (human, plasma; intravenous, 1000 mg/m2, cycle 1 day 1, with: lonafarnib 100 mg twice daily).
